{"data": "Assay results pooled from the literature", "note": "Each numbered part is a random draw from the data of one study; scales do not carry over between parts. Values joined by “and” are separate records of one study, mostly repeats; a detail may differ."}
{"data": "Sample 1", "target": "Membrane-associated tyrosine- and threonine-specific cdc2-inhibitory kinase (PKMYT1, Homo sapiens, UniProt Q99640)", "effect on": "binding", "technique": "HTRF", "concentration": "0.46 nM", "Target sequence (Q99640 1-499)": "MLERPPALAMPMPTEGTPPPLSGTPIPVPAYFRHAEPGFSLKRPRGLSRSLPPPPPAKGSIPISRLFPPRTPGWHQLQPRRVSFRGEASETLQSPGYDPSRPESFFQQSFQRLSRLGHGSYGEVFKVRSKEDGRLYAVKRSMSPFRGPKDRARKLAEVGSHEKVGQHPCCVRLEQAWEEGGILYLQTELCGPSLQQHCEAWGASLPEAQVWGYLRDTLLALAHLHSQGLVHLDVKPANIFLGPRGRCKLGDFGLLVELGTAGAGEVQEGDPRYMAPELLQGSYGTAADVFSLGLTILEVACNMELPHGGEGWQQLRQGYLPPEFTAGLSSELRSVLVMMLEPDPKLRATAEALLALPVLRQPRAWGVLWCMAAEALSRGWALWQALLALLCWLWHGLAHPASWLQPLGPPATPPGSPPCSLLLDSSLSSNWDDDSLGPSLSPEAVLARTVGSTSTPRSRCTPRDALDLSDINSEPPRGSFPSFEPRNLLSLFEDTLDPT"}
{"SMILES": "Cc1ncc(-c2cc3c(N)c(-c4c(C)ccc(O)c4C)cnc3[nH]2)cn1", "inhibition": "-8.64% and -6.06%"}
{"SMILES": "Cc1ccc(O)c(C)c1-c1cnc2[nH]c(-c3cnc(N4CCC5(CC4)CC(N4CCN(c6cc7c(cc6F)c(N6CCC(=O)NC6=O)nn7C)CC4)CO5)nc3)cc2c1C#N (racemic)", "inhibition": "8.11% and 8.14%"}
{"SMILES": "Cc1ccc(O)c(C)c1-c1cnc2[nH]c(-c3cnc(N4CCC5(CC4)CC(N4CCN(c6ccc7c(c6)C(=O)N(C6CCC(=O)NC6=O)C7=O)CC4)CO5)nc3)cc2c1C#N (mixture of isomers)", "inhibition": "4.48% and 5.85%"}
{"SMILES": "Cc1ccc(O)c(C)c1-c1cnc2[nH]c(-c3cnc(N4CCC(CCN5CCN(c6cc7c(cc6F)c(N6CCC(=O)NC6=O)nn7C)CC5)CC4)nc3)cc2c1C#N", "inhibition": "12.7% and 4.65%"}
{"SMILES": "Cc1ccc(O)c(C)c1-c1cnc2[nH]c(-c3cnc(N4CCC(CN5CCN(c6ccc(NC7CCC(=O)NC7=O)c(F)c6)CC5)CC4)nc3)cc2c1C#N (racemic)", "inhibition": "2.89% and 3.42%"}
{"SMILES": "Cc1ccc(O)c(C)c1-c1cnc2[nH]c(-c3cnc(N4CCC(CN5CCN(c6c(F)cc(NC7CCC(=O)NC7=O)cc6F)CC5)CC4)nc3)cc2c1C#N (racemic)", "inhibition": "-1.54% and -6.58%"}
{"data": "Sample 2", "organism": "Arabidopsis thaliana", "strain": "Col-0", "concentration": "3.125 µg/mL", "notes": "seed germination, single repetition"}
{"Structure (SMILES)": "Cc1ccc2c(c1)OC(O)(C(=O)O)C(=O)N2Cc1ccccc1 (stereo not drawn)", "hypocotyl length": "2.09 cm and 2.08 cm and 2.1 cm and 2.05 cm"}
{"Structure (SMILES)": "CCCN1C(=O)C(O)(C(=O)O)Oc2cc(F)ccc21 (stereo not drawn)", "hypocotyl length": "2.2 cm and 2.25 cm and 2.21 cm and 2.45 cm"}
{"Structure (SMILES)": "CC(C)=CCN1C(=O)C(O)(C(=O)O)Oc2cc(F)ccc21 (stereo not drawn)", "hypocotyl length": "2.1 cm and 2.13 cm and 2.16 cm and 2.15 cm and 2.11 cm"}
{"Structure (SMILES)": "O=C(O)C1(O)Oc2ccccc2N(Cc2ccccc2)C1=O (stereo not drawn)", "hypocotyl length": "1.9 cm and 2.03 cm and 1.88 cm and 1.91 cm"}
{"Structure (SMILES)": "CCN1C(=O)C(O)(C(=O)O)Oc2cc(F)ccc21 (stereo not drawn)", "hypocotyl length": "2.35 cm and 2.21 cm and 2.26 cm and 2.12 cm and 2.11 cm"}
{"data": "Sample 3", "Structure (SMILES)": "C[C@@H]1CN(c2ccc(-c3cc(C(=O)NCCOCCOCCOCCOCCNC(=O)/C=C/c4[nH]cc(C(=O)N[C@@H](CC(N)=O)c5ccc(F)c(Cl)c5)c4-c4ccc(Cl)cc4F)ccc3F)cc2NC(=O)c2c[nH]c(=O)cc2C(F)(F)F)C[C@H](C)N1C", "effect on": "thermal unfolding", "technique": "differential scanning fluorimetry", "concentration": "5.5 µM", "direction": "higher = more unfolded", "DCAF1": "DDB1- and CUL4-associated factor 1 (DCAF1, Homo sapiens, UniProt Q9Y4B6)", "WDR5": "WD repeat-containing protein 5 (WDR5, Homo sapiens, UniProt P61964)", "sequence of UniProt Q9Y4B6 (whole entry, looked up)": "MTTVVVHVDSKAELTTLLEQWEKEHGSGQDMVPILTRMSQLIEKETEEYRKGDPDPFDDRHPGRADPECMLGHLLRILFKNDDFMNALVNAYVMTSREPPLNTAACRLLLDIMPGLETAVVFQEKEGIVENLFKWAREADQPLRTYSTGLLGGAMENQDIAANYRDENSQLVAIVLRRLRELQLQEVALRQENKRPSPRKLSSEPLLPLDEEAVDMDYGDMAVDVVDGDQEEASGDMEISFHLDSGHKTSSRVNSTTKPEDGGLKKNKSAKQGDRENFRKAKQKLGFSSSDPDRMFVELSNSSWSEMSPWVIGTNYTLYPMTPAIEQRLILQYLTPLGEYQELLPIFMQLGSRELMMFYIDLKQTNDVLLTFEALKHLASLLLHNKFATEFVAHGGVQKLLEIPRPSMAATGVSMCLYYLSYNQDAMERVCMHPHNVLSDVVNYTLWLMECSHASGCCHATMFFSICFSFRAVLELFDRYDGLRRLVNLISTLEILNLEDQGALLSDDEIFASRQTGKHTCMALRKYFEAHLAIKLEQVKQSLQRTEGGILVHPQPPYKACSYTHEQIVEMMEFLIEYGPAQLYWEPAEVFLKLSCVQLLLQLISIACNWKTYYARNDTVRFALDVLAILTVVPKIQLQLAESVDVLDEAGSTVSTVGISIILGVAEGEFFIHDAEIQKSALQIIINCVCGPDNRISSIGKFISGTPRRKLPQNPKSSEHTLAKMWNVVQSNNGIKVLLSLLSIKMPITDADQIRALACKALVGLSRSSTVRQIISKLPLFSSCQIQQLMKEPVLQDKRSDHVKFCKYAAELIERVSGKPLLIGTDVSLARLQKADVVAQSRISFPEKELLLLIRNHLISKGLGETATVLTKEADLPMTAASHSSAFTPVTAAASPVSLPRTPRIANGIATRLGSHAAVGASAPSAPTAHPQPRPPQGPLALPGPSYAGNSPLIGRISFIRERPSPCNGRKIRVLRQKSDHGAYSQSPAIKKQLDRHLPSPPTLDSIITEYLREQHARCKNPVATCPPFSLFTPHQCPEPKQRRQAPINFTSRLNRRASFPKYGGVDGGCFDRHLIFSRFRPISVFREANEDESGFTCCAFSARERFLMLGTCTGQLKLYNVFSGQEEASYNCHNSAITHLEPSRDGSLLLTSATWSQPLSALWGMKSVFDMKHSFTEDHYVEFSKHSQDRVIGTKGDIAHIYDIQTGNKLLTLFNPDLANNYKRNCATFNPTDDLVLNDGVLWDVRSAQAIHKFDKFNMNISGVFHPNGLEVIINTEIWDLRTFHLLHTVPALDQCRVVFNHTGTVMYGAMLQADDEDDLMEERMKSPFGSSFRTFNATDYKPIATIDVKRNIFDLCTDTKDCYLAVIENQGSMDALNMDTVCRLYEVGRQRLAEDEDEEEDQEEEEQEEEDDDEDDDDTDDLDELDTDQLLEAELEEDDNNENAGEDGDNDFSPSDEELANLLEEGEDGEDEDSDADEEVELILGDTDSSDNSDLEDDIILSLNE"}
{"target": "DCAF1", "temperature": "38.6 °C", "SYPRO Orange fluorescence": "11100 a.u."}
{"target": "DCAF1", "temperature": "79.41 °C", "SYPRO Orange fluorescence": "45900 a.u."}
{"target": "DCAF1", "temperature": "60.41 °C", "SYPRO Orange fluorescence": "42700 a.u."}
{"target": "WDR5", "temperature": "41.2 °C", "SYPRO Orange fluorescence": "14300 a.u."}
{"target": "WDR5", "temperature": "54.61 °C", "SYPRO Orange fluorescence": "16800 a.u."}
{"target": "DCAF1", "temperature": "79.21 °C", "SYPRO Orange fluorescence": "46100 a.u."}
{"target": "WDR5", "temperature": "28.4 °C", "SYPRO Orange fluorescence": "12900 a.u."}
{"target": "DCAF1", "temperature": "94.01 °C", "SYPRO Orange fluorescence": "30600 a.u."}
{"data": "Sample 4", "SMILES": "CCN1/C(=C/C=C2\\CCCC(/C=C/C3=[N+](CC)c4ccccc4C3(C)C)=C2NCCCCCCCCN2CCC(Nc3nc4ccccc4n3Cc3ccc(F)cc3)CC2)C(C)(C)c2ccccc21", "cell line": "U-87 MG", "concentration": "concentration not given", "relative to": "DMSO"}
{"item": "CHN1 mRNA", "log2 fold change": -1.19}
{"item": "STAB1 mRNA", "log2 fold change": -4.61}
{"item": "NOD1 mRNA", "log2 fold change": -1.1}
{"item": "ITGBL1 mRNA", "log2 fold change": 1.83}
{"item": "UNC5B mRNA", "log2 fold change": 1.66}
{"item": "SPARC mRNA", "log2 fold change": -1.7}
{"item": "UTRN mRNA", "log2 fold change": -1.39}
{"item": "BEX4 mRNA", "log2 fold change": 1.99}
{"item": "CIPC mRNA", "log2 fold change": 0.979}
{"item": "RARG mRNA", "log2 fold change": -1.12}
{"item": "MAFF mRNA", "log2 fold change": 2.13}
{"note": "Excerpt of the above (sample 4):"}
{"item": "RARG mRNA", "log2 fold change": -1.12}
{"item": "ITGBL1 mRNA", "log2 fold change": 1.83}
{"item": "NOD1 mRNA", "log2 fold change": -1.1}
